Published values collected from several papers.
Each line is one published result; not all experiments were run side by side. Numbers after ± are the reported error.
Uncharacterized protein: Uncharacterized protein (Equus caballus, UniProt Q38RB9)
Cytochrome P450 2A13: Cytochrome P450 2A13 (Homo sapiens, UniProt Q16696)
UniProt Q16696, sequence (whole entry, looked up): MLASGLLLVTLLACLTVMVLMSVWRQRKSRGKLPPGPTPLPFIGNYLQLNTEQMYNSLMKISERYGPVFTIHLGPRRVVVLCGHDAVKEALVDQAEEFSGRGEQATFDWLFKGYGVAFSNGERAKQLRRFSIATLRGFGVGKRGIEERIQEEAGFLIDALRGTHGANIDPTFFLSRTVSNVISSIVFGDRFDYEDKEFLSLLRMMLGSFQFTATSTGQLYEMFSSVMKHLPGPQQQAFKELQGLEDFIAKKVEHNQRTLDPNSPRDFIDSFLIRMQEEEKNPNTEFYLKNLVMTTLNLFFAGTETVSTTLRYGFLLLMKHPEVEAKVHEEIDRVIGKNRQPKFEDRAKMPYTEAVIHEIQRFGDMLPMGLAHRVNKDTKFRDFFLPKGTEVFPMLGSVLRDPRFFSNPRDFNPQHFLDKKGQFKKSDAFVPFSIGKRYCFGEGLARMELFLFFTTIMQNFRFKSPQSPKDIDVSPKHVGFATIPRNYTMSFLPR
ACTA1 pyrene-labeled: Actin, alpha skeletal muscle, pyrene-labeled (ACTA1, Oryctolagus cuniculus, UniProt P68135)
gag-pol reverse transcriptase: Gag-Pol polyprotein, reverse transcriptase (gag-pol, Human immunodeficiency virus 1, UniProt P03366)
UniProt Q00987, sequence (whole entry, looked up): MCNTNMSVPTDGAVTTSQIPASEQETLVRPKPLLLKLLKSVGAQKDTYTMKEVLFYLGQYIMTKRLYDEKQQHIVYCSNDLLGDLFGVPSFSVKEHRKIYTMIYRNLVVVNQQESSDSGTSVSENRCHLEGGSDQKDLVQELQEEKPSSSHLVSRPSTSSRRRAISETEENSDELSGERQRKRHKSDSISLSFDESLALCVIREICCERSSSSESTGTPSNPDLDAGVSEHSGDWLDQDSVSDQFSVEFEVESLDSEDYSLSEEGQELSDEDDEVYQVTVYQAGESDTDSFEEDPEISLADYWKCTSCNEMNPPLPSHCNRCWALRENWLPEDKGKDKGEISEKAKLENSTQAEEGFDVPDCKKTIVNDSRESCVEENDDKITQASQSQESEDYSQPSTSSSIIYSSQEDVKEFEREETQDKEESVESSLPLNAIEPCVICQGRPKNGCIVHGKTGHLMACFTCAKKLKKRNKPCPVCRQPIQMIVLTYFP
UniProt P21728, sequence (whole entry, looked up): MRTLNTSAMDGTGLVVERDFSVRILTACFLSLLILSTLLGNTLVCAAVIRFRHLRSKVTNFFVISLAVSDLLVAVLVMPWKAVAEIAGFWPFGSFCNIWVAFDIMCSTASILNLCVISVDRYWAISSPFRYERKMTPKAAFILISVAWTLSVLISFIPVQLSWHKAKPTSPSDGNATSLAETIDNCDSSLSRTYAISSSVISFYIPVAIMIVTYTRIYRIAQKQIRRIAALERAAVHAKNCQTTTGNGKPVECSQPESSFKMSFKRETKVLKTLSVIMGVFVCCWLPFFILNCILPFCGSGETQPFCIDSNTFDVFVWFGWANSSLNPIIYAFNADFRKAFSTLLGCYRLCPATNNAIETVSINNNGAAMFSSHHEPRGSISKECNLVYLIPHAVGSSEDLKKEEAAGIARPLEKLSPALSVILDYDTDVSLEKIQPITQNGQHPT
UniProt P05183, sequence (whole entry, looked up): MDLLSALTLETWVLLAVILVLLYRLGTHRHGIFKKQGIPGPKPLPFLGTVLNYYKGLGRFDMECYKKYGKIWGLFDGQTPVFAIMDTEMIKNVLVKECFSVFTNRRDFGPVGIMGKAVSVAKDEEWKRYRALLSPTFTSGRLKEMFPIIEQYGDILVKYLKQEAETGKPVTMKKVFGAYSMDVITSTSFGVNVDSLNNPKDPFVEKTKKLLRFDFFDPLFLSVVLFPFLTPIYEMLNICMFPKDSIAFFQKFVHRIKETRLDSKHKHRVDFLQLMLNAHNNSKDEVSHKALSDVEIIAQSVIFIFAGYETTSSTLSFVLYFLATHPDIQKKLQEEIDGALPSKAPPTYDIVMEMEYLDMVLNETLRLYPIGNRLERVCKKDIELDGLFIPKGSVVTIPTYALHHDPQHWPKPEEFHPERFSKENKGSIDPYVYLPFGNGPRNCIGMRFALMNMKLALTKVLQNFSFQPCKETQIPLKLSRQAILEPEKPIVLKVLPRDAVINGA
UniProt P32745, sequence (whole entry, looked up): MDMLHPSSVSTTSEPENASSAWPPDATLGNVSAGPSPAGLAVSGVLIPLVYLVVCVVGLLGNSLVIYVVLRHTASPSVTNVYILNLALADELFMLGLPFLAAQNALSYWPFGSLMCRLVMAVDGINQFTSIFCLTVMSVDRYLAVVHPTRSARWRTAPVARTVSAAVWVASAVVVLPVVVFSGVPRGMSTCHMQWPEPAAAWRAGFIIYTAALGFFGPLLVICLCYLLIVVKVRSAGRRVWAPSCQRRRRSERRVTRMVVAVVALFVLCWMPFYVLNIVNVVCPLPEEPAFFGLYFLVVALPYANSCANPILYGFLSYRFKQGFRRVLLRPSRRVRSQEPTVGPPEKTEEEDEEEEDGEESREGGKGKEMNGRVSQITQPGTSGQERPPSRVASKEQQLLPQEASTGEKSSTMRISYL
UniProt Q14765, sequence (whole entry, looked up): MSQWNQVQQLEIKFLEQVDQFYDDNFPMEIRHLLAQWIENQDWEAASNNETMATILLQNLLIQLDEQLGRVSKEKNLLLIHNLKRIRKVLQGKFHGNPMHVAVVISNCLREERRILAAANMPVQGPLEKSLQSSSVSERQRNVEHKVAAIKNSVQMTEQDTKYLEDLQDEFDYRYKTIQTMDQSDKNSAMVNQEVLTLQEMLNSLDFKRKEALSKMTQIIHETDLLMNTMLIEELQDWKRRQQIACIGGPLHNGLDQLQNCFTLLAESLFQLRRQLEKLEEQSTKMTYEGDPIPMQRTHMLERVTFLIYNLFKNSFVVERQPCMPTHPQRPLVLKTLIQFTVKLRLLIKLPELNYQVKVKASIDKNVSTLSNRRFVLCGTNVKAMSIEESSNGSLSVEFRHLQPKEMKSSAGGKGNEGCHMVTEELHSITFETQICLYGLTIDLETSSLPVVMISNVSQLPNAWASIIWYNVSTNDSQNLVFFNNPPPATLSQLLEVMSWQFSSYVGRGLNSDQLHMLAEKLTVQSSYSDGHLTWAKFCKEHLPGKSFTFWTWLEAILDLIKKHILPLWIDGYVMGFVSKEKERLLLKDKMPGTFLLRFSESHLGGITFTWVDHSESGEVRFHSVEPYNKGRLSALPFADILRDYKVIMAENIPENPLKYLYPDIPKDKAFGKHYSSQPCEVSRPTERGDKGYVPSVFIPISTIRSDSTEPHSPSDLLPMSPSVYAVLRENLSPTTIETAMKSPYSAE
UniProt Q9Y570, sequence (whole entry, looked up): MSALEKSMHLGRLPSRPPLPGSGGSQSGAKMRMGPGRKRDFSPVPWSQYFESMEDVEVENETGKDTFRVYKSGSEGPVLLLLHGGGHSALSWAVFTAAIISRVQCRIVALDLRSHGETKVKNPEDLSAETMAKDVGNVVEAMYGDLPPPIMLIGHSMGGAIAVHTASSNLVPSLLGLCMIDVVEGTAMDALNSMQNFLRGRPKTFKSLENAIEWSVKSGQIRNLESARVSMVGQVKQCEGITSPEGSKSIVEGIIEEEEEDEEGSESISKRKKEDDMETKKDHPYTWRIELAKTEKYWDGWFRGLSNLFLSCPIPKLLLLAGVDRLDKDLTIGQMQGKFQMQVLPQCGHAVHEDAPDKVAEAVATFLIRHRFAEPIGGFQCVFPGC
UniProt Q99436, sequence (whole entry, looked up): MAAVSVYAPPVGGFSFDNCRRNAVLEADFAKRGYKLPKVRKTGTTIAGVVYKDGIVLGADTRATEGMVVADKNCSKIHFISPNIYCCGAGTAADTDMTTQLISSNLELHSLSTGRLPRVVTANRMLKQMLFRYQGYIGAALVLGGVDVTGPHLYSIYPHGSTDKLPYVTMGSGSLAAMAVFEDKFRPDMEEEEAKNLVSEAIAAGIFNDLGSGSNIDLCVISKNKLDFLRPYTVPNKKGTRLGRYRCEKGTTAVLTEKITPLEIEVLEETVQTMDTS
UniProt P11229, sequence (whole entry, looked up): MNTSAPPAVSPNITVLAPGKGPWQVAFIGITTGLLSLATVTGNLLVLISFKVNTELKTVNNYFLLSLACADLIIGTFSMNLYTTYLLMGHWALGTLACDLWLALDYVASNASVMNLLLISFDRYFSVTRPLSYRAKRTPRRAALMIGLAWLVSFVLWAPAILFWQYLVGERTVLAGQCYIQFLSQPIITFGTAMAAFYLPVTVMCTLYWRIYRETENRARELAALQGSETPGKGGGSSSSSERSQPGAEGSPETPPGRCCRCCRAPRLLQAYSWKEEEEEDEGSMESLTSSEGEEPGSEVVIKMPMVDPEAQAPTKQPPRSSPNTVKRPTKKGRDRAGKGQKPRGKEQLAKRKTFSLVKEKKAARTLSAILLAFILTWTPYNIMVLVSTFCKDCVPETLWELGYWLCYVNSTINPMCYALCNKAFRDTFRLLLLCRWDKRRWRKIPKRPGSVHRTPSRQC
UniProt O15151, sequence (whole entry, looked up): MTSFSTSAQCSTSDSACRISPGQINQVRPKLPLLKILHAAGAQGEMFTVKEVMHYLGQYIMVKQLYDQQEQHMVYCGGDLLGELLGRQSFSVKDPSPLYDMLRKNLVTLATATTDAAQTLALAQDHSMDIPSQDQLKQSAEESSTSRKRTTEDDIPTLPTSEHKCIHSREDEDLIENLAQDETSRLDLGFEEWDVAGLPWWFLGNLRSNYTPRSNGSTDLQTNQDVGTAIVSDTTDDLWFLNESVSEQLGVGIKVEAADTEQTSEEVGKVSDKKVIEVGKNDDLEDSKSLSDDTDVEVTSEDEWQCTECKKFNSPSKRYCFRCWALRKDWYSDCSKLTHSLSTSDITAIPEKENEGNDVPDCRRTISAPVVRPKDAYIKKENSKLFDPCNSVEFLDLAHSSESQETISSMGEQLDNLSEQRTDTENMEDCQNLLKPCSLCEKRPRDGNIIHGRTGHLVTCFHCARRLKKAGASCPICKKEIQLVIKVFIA
UniProt P00441, sequence (whole entry, looked up): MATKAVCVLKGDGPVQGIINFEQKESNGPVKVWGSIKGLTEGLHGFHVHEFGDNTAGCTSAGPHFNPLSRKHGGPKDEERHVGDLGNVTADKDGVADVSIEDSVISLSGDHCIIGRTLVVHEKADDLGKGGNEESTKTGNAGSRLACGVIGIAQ

Structure (SMILES) | target | test | system | conditions | IC50 [nM]
CC(C)C[C@H](NC(=O)CNC(=O)[C@@H](NC(=O)[C@H](Cc1c[nH]cn1)NC(=O)CNC(=O)[C@H](CC(N)=O)NC(=O)[C@H](Cc1ccc(O)cc1)NC(=O)[C@H](CC(=O)O)NC(=O)CN)C(C)C)C(=O)O | Uncharacterized protein | peptide binding, competitor, competitive radioligand binding | purified horse MHC class I | pH 7 | 1.5
CC#Cc1ccc2ccc3ccccc3c2c1 | Cytochrome P450 2A13 | enzyme activity, inhibitor |  | 20 min, pH 7.4 | > 100000
COc1ccc([C@@H]2CC(=O)c3c(O)cc(O[C@@H]4O[C@H](CO[C@@H]5O[C@@H](C)[C@H](O)[C@@H](O)[C@H]5O)[C@@H](O)[C@H](O)[C@H]4O)cc3O2)cc1O | Superoxide dismutase [Cu-Zn], fully metallated (SOD1, Homo sapiens, UniProt P00441) | enzyme activity, inhibitor, XTT |  |  | > 75000
NC(N)=NC(=O)c1nc(Cl)c(N2CCCCCC2)nc1N | Genome polyprotein, 3D RNA polymerase (Coxsackievirus B3, UniProt P03313) | RNA polymerase activity, inhibitor, single AMP incorporation |  | no Mg2+ preincubation | 136000 ± 22000
C/C1=C/C(=O)O[C@@H]2C[C@@H](CC[C@H](C)/C=C\C=C\CC1)O[C@@](O)([C@@H]1CSC(=O)N1CO)C2 | ACTA1 pyrene-labeled | actin polymerization, pyrene actin |  |  | 210 ± 54
O=[N+]([O-])c1cc(-c2ccnc(N3CCOCC3)n2)ccc1NCCCCCCN1C[C@H](O)[C@@H](O)[C@H](O)[C@H]1CO | Ganab (Mus musculus, UniProt Q8BHN3) | enzyme activity, inhibitor |  | with: 4-methylumbelliferyl substrate | < 1
COc1ccc(C[C@H](NC(=O)[C@H](C)NC(=O)CN2CCOCC2)C(=O)N[C@H](C(=O)[C@@]2(C)CO2)C2CCCCC2)cc1 | PSMB7 (Homo sapiens, UniProt Q99436) | inhibitor, competitive ABPP | Raji cell lysate | constitutive proteasome β2c | > 10000
O=C1CSC(c2cccc(Cl)c2Cl)N1c1nc(-c2ccc(S(=O)(=O)N3CCOCC3)cc2)cs1 (centres unmarked) | gag-pol reverse transcriptase |  |  |  | > 4000
CC(=O)N[C@@H](CCCCN)C(=O)N[C@H](C(=O)N[C@@H](Cc1ccccc1)C(=O)N[C@H]1CSCCCCCCS[C@H]2C[C@@H](C(N)=O)N(C2)C(=O)NC[C@H](CC(C)C)NC(=O)NC[C@H](CC(C)C)NC(=O)[C@H](C)NC(=O)[C@H](Cc2c[nH]c3ccccc23)NC(=O)[C@H](Cc2ccc(O)cc2)NC(=O)[C@H](CCC(=O)O)NC1=O)[C@@H](C)O | Protein Mdm4, with p53 (MDM4, Homo sapiens, UniProt O15151) | p53 binding, TR-FRET |  |  | 63.3
COc1cc(Nc2ncc(F)c(Nc3ccc4c(n3)NC(=O)C(C)(C)O4)n2)cc(OC)c1OC | SSTR3 (Homo sapiens, UniProt P32745) |  |  |  | > 10000
C[N+]1(C)CCC(OC(=O)C(c2ccccc2)c2ccccc2)CC1 | CHRM1 (Homo sapiens, UniProt P11229) | inhibitor |  | human, concurrent measurement | 4.67
CCOC(=O)[C@H]1Cc2c(cc([N+](=O)[O-])cc2[N+](=O)[O-])[C@@H](O)[C@@]12C(=O)Nc1cc(Br)ccc12 | MDM2 (Homo sapiens, UniProt Q00987) |  |  |  | 850 ± 110
O=c1cc(-c2ccccc2)oc2cc(O)ccc12 | Cytochrome P450 2A13 | enzyme activity, inhibitor |  | 20 min, pH 7.4 | 400 to 10000
O=C1CSC(c2cccc(Br)c2)N1c1nc(-c2ccc(S(=O)(=O)N3CCCC3)cc2)cs1 (centres unmarked) | gag-pol reverse transcriptase |  |  |  | > 4000
C/C1=C/C(=O)O[C@@H]2C[C@@H](CC[C@H](C)/C=C\C=C\CC1)O[C@@](OC(=O)c1ccccc1)([C@@H]1CSC(=O)N1)C2 | ACTA1 pyrene-labeled | actin polymerization, pyrene actin |  |  | 466 ± 51
O=C1CSC(c2cccc(Cl)c2)N1c1nc(-c2ccc(S(=O)(=O)N3CCCC3)cc2)cs1 (centres unmarked) | gag-pol reverse transcriptase |  |  |  | 180
N#Cc1ccc(Nc2ncc(Cc3c(F)cc(-c4ccc(OS(=O)(=O)F)cc4)cc3F)o2)cc1 | gag-pol reverse transcriptase | enzyme activity, inhibitor | HIV-1 |  | > 20000
C[C@H]1CN(c2n[nH]c3nc(N[C@H]4CC[C@H](NS(=O)(=O)CCC(F)(F)F)CC4)ncc23)CCO1 | Tight junction protein 1 (TJP1, Homo sapiens, UniProt Q07157) | biochemical |  |  | ≥ 20000
COC(=O)N1C(=O)[C@](c2ccccc2)(C2CCCC2)N1C(=O)OC | Protein phosphatase methylesterase 1 (Homo sapiens, UniProt Q9Y570) | enzyme activity, inhibitor |  | with: FP-biotin 1 µM | 12.2
O=P(O)(O)Oc1ccccc1OP(=O)(O)O | Signal transducer and activator of transcription 4 (Homo sapiens, UniProt Q14765) | inhibitor |  |  | 68000 ± 6000
COc1ncccc1-c1cnn2ccc(N3CCN(C(=O)OC(C)C)CC3)nc12 | DRD1 (Homo sapiens, UniProt P21728) | liability screen |  |  | > 30000
CC[C@H](C)[C@H](NC(=O)[C@H](CO)NC(=O)[C@@H](NC(=O)[C@H](CC(N)=O)NC(=O)[C@H](Cc1ccc(O)cc1)NC(=O)[C@H](Cc1ccccc1)NC(=O)[C@@H](NC(=O)[C@H](CCC(=O)O)NC(=O)[C@@H](NC(=O)[C@H](CC(=O)O)NC(=O)[C@@H](N)CCCNC(=N)N)[C@@H](C)CC)[C@@H](C)O)[C@@H](C)O)C(=O)O | Uncharacterized protein | peptide binding, competitor, competitive radioligand binding | purified horse MHC class I | pH 7 | 0.14
COc1cc2c(cc1OC)C1CC(=O)C(CC(C)C)CN1CC2 (centres unmarked) | SLC18A2 (Homo sapiens, UniProt Q05940) | inhibitor |  |  | 54
O=C(O)CC(F)(F)C(=O)N1N=C(c2c(-c3ccc(Cl)cc3)c3ccccc3[nH]c2=O)C[C@H]1c1ccc(Cl)cc1 | Ionotropic glutamate receptor NMDA 1/2D (Rattus norvegicus, UniProt P35439+Q62645) | ion current, inhibitor, two-electrode voltage clamp | Xenopus oocytes | with: glycine and glutamate | 23
O=C1CSC(c2c(Cl)cccc2Cl)N1c1nc(-c2ccc(S(=O)(=O)N3CCOCC3)cc2)cs1 (centres unmarked) | gag-pol reverse transcriptase |  |  |  | > 4000
OC1C=C2c3ccccc3-c3cccc(c32)C1O (centres unmarked) | Cytochrome P450 2A13 | enzyme activity, inhibitor |  | 20 min, pH 7.4 | > 180000
CC[C@H](C)[C@H](NC(=O)[C@H](CCCCN)NC(=O)[C@@H](NC(=O)[C@H](Cc1c[nH]cn1)NC(=O)[C@H](CO)NC(=O)[C@@H]1CCCN1C(=O)[C@H](CC(C)C)NC(=O)[C@H](CC(=O)O)NC(=O)[C@@H](N)CCCNC(=N)N)[C@@H](C)O)C(=O)O | Uncharacterized protein | peptide binding, competitor, competitive radioligand binding | purified horse MHC class I | pH 7 | 4.5
O=[N+]([O-])c1ccc2ccc3cccc4ccc1c2c34 | Cytochrome P450 2A13 | enzyme activity, inhibitor |  | 20 min, pH 7.4 | > 100000
COc1ccc2c(c[n+](C)c3c4cc5c(cc4ccc23)OCO5)c1OC | Cytochrome P450 3A2 (Cyp3a2, Rattus norvegicus, UniProt P05183) | enzyme activity, inhibitor | Sprague-Dawley rat, male | 30 (unit not given), pH 7.4 | 17600
